Measured values pooled from the literature.
Compare with care: the assays were run in different laboratories. Numbers after ± are the reported error.

Cc1cc(Cl)c(OCCOCCN2CCN(C)CC2)c(Br)c1.O=C(O)C(=O)O
translation activity (Trypanosoma cruzi; reporter mRNA translation, inhibitor, measured: Renilla luciferase mRNA; cell-free extract; concentration not given, test 2; baseline: positive over negative control): 109%

C=CC(=O)N1[C@@H](c2ccc3c(c2)OCO3)c2[nH]c3ccccc3c2C[C@H]1C(=O)N1CCN(C)CC1
log2 fold change (CCNE1 WT-3xFLAG:CDK2 complex; co-IP TMT proteomics, measured: SAMHD1; HEK-293T; 20 µM, 6 h; baseline: DMSO): -0.23

CCCn1ncc(CN2CCCC(C(=O)c3cccc(OC(C)C)c3)C2)c1C (stereo not drawn)
translation activity (Trypanosoma cruzi; reporter mRNA translation, inhibitor, measured: Renilla luciferase mRNA; cell-free extract; concentration not given, test 2; baseline: positive over negative control): 92.7%

CN1CCCNC(=O)CC2(CCCCC2)CC(=O)NCCCN(C)CCCNc2cccc3c2C(=O)c2cccc(c2C3=O)NCCC1
ΔTm (telomeric G-quadruplex DNA; DNA thermal stabilisation, CD melting; concentration not given, pH 7.4, with: 100 mM KCl): 2.8 ± 1.3 °C

C=CC(=O)Nc1cccc(Cn2ncc3cnc(Nc4cnn(CCOC)c4)nc32)c1
percent of control (TAK1 human; binding, KINOMEscan; 100 nM; lower = stronger binding): 79%

Fc1ccc(Nc2nc(NC3CCCCC3)c3cc(Br)ccc3n2)cc1F
pIC50 (β2AR/β1AR TM2 chimera; β-arrestin2 recruitment, antagonist, BRET; with: isoprenaline 1 µM): 6.2

CC[C@H]1OC(=O)[C@H](C)[C@@H](OC(=O)c2ccc([N+](=O)[O-])cc2)[C@H](C)[C@@H](O[C@@H]2O[C@H](C)C[C@H](N(C)C)[C@H]2O)[C@](C)(OC)C[C@@H](C)C(=O)[C@H](C)[C@@H](O)[C@]1(C)O
IC50 (Escherichia coli ribosome; in vitro transcription-translation, inhibitor): 3600 nM

Nc1ncc(-c2cc(-c3cnn(CC(F)(F)F)c3)ncc2F)nc1C(=O)NC1CNCC(F)C1 (stereo not drawn)
remaining binding (LTK; KINOMEscan; 1 µM; baseline: DMSO control): 100%

CC[C@H]1OC(=O)[C@H](C)[C@@H](OC(=O)Cc2ccc([N+](=O)[O-])cc2)[C@H](C)[C@@H](O[C@@H]2O[C@H](C)C[C@H](N(C)C)[C@H]2O)[C@](C)(OC)C[C@@H](C)C(=O)[C@H](C)[C@@H](O)[C@]1(C)O
IC50 (Escherichia coli ribosome; in vitro transcription-translation, inhibitor): 290 nM

O=C(Nc1cc(OCCN2CCCC2)c2ccccc2n1)c1cccc(C(=O)Nc2cc(OCCN3CCCC3)c3ccccc3n2)n1
ΔTm (c-kit1 G-quadruplex DNA; FRET melting; 1 µM, pH 7.4, with: 60 mM potassium): 26.2 ± 0.9 K

C1=[N+]2CCCC[N+]3=Cc4ccc5[n]4[Au-]23[n]2c1ccc2-c1nc2ccccc2nc1-5.F[P-](F)(F)(F)(F)F
melting temperature (human ACTN3 291-bp linear dsDNA; high-resolution melt; 416 nM): 83.5 °C

CC(C)=CCC/C(C)=C/CC/C(C)=C/Cc1c(O)cc(CO)c(C=O)c1O
Vmax (StaI (Stachybotrys chartarum); substrate; 30 min, pH 7.0, 45 °C): 1.74 nmol/min/mg

c1ccc(-c2n[nH]cc2-c2ccnc3ccccc23)nc1
log2 fold change (FPK1 (Candida albicans); kinase binding, MIB/MS competition; Candida albicans lysate; 10 µM; baseline: DMSO): -0.1

O=C(NCc1ccc2c(c1)CN(C(=O)c1cc(-c3ccccc3)no1)C2)C1C=CC=CC=C1
IC50 (FSP1 L323A; resorufin formation, inhibitor, resazurin; pH 7.2, with: 50 µM resazurin, 100 µM NADH): 490 ± 30 nM

C1=[N+]2CCC[N+]3=Cc4ccc5[n]4[Au-]23[n]2c1ccc2-c1nc2ccccc2nc1-5.F[P-](F)(F)(F)(F)F
melting temperature (human ACTN3 291-bp linear dsDNA; high-resolution melt; 408 nM): 83.3 °C

A few entries again:
C1=[N+]2CCC[N+]3=Cc4ccc5[n]4[Au-]23[n]2c1ccc2-c1nc2ccccc2nc1-5.F[P-](F)(F)(F)(F)F
melting temperature (human ACTN3 291-bp linear dsDNA; high-resolution melt; 408 nM): 83.3 °C
